Measurements gathered from unrelated publications.
Every numbered part comes from another study and shows a few of its results, in no order.
Sequence of UniProt O15264 (whole entry, looked up): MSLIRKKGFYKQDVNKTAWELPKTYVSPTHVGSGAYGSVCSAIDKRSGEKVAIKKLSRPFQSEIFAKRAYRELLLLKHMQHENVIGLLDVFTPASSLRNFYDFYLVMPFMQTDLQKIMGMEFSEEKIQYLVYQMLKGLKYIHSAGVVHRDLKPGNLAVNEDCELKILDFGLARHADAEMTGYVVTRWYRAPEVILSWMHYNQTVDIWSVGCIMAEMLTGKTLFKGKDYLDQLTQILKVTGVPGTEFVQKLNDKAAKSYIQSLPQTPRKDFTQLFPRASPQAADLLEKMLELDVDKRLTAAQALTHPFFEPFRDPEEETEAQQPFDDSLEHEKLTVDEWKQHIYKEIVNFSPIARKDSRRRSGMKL
Sequence of UniProt Q9UQM7 (whole entry, looked up): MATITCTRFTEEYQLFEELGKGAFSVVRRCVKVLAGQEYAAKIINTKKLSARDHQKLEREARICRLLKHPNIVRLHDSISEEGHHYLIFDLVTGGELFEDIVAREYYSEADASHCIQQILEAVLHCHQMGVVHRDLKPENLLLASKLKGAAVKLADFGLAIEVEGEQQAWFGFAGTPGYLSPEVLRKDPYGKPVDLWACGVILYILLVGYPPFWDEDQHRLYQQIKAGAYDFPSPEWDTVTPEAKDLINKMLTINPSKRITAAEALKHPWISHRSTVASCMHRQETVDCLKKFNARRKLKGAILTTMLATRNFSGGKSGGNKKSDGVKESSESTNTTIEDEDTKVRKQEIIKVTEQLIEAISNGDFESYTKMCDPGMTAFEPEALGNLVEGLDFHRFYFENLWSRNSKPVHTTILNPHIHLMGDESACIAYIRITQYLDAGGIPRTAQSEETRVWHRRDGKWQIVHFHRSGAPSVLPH
Sequence of UniProt Q08345 (whole entry, looked up): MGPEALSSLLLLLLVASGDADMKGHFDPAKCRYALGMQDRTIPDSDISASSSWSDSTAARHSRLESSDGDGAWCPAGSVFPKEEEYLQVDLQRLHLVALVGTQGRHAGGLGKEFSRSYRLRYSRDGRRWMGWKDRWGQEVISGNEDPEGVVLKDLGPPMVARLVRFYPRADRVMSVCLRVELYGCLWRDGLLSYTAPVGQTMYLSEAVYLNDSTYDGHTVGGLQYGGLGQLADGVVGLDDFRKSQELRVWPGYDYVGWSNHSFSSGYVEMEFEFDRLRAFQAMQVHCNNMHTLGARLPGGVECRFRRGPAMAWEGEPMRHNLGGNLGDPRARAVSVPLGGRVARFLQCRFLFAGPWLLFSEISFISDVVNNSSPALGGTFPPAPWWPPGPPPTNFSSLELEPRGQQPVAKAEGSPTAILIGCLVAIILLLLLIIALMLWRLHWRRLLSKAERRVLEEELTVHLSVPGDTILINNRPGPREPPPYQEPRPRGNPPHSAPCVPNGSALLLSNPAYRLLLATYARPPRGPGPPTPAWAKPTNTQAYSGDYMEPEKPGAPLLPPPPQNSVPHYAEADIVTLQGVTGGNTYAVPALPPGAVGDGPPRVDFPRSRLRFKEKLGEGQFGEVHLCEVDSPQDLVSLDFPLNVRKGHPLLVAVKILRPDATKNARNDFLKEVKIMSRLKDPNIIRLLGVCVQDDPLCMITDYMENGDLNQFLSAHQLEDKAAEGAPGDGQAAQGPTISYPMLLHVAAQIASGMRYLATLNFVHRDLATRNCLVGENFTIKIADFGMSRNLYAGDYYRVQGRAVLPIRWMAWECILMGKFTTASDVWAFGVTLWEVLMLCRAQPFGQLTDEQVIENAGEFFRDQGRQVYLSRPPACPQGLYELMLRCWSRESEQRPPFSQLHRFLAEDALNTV
Sequence of UniProt P48729 (whole entry, looked up): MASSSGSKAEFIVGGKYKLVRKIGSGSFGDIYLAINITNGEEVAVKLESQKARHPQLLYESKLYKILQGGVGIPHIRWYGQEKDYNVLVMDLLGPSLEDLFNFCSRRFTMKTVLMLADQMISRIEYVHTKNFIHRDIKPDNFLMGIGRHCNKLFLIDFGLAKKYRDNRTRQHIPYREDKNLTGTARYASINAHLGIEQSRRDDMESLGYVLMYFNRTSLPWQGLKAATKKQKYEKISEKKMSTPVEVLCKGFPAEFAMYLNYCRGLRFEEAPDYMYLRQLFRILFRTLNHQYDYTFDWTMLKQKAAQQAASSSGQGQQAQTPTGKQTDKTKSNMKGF
Sequence of UniProt O95382 (whole entry, looked up): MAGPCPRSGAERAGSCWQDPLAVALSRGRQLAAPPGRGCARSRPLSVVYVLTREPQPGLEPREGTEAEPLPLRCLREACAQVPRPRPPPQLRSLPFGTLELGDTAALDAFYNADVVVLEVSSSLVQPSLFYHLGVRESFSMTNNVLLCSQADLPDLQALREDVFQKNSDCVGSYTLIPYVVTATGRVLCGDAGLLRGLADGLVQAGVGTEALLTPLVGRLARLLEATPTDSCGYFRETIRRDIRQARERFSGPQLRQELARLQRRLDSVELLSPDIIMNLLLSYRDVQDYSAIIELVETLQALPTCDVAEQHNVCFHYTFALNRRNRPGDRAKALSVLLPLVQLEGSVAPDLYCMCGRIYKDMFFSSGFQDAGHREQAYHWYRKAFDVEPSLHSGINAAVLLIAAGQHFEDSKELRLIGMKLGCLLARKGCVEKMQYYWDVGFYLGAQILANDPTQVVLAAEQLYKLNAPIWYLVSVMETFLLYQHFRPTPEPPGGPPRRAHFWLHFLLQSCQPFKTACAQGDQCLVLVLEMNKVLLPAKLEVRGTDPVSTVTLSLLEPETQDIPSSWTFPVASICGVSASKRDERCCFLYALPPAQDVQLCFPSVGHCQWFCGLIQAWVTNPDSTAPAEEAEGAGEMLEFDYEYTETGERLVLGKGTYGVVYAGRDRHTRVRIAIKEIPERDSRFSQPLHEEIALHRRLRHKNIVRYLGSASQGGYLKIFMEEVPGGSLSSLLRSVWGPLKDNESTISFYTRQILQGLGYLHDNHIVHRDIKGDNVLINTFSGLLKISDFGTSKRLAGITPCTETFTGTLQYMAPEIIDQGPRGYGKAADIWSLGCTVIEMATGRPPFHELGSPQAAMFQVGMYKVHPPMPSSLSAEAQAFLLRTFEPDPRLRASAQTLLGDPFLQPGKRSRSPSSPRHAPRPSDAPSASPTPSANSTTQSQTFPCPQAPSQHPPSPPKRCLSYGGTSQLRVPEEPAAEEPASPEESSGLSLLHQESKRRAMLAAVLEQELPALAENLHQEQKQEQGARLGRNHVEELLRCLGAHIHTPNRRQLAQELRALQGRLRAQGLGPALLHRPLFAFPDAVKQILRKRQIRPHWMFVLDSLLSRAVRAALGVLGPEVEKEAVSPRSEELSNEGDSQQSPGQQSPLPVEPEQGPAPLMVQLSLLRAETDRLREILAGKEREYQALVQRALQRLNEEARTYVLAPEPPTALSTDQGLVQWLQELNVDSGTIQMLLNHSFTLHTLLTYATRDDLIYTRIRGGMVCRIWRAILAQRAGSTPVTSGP
Sequence of UniProt P51813 (whole entry, looked up): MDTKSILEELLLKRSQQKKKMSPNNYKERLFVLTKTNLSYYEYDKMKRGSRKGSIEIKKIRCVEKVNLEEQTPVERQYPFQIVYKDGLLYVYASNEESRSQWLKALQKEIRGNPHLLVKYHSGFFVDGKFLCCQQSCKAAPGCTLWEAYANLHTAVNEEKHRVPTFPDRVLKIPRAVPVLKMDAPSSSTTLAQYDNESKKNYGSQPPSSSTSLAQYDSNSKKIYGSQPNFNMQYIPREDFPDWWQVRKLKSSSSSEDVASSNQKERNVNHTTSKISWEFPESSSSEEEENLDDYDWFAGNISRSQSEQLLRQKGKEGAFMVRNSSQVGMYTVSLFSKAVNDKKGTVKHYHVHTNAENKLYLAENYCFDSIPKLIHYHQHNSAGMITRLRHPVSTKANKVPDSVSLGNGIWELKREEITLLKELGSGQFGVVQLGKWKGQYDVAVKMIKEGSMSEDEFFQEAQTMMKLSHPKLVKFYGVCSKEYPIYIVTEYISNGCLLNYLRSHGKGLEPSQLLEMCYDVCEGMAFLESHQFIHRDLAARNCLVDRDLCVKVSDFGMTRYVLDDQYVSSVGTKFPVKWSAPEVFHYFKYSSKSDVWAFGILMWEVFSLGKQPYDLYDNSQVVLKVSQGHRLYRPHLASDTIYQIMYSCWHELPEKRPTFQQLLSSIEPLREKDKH
Sequence of UniProt P11802 (whole entry, looked up): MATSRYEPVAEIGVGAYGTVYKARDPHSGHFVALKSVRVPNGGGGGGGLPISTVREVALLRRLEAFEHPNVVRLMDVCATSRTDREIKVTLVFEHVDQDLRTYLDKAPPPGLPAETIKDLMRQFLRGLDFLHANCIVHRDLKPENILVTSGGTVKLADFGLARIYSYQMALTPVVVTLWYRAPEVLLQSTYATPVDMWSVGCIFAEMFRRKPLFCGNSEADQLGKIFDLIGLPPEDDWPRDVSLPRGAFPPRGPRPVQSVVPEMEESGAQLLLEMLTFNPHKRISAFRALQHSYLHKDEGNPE

Set 1
Species: human
Matrix: microsomes or S9
Tested at: 2 µM
Time: 0.5 h
Endpoint: remaining compound
Cc1ccc2c(c1C)NC(=O)CC2c1c(F)cccc1Cl (stereo not shown): 28.6%
Clc1ccccc1C1(c2ccnc(Cn3cncn3)n2)CCNCC1: 92%
Oc1ccc(C23CCCC2C2(CCCC2)c2ccc(O)cc2O3)c(O)c1 (stereo not shown): 43.3%
Cc1ccc(C#N)c(NC(C)Cc2c(C)noc2C)n1 (stereo not shown): 0.539%
CN1CCC(C(=O)OC2CC(C)(C)Oc3ccc(Br)cc32)CC1=O (stereo not shown): 16.2%
Cc1nc2c(cc1Br)nc(Cl)n2C: 15.1%
CCc1cccc(CC)c1NC(=O)CN(c1cccc(Cl)c1Cl)S(C)(=O)=O: 1.74%
Cc1cccc(C2NCCc3c2[nH]c2ccccc32)c1 (stereo not shown): > 100%
COc1nc([N+](=O)[O-])cn1CC(OCc1ccc(F)cc1)c1ccc(F)cc1F (stereo not shown): 6.54%

Set 2
SMILES: Cc1c(C(=O)O)cc(-c2ccc(C3CCNCC3)cc2)c2ccc(-c3ccc(C(F)(F)F)cc3)cc12
Technique: competition with immobilised ligand
Tested at: 1 µM
Endpoint: remaining binding
CSNK1A1 (Homo sapiens, UniProt P48729); cell-free assay: 81%
EPHA5 (Homo sapiens, UniProt P54756); cell-free assay: 100%
BMX (Homo sapiens, UniProt P51813); cell-free assay: 100%
HIPK2 (Homo sapiens, UniProt Q9H2X6); binding: 100%
PIKFYVE (Homo sapiens, UniProt Q9Y2I7); cell-free assay: 100%
DDR1 (Homo sapiens, UniProt Q08345); cell-free assay: 100%
KIT (Homo sapiens, UniProt P10721, T670I/V559D); binding: 100%
MAP3K4 (Homo sapiens, UniProt Q9Y6R4); binding: 100%
TTK (Homo sapiens, UniProt P33981); binding: 100%
MAPK13 (Homo sapiens, UniProt O15264); binding: 96%
Cyclin-dependent kinase 4, with cyclin D3 (CDK4, Homo sapiens, UniProt P11802); binding: 100%
CDK2 (Homo sapiens, UniProt P24941); binding: 100%
CAMK2A (Homo sapiens, UniProt Q9UQM7); cell-free assay: 100%
MAP3K6 (Homo sapiens, UniProt O95382); binding: 100%

Set 3
Target: Cyclin-dependent kinase 7 (CDK7, Homo sapiens, UniProt P50613)
Sequence of UniProt P50613 (whole entry, looked up): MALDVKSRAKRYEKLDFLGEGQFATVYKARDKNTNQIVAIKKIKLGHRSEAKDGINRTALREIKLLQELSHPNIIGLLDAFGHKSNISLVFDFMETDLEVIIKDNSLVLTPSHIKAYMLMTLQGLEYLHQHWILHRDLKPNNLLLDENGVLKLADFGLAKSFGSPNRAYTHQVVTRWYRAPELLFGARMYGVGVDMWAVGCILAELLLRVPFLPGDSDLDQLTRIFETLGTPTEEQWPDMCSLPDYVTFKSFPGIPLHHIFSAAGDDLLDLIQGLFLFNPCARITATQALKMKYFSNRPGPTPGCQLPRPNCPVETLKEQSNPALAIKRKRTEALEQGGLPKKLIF
Effect on: enzyme activity
Mode: inhibitor
Tested at: 0.5 µM
Baseline: control
Endpoint: remaining activity
O=C(Nc1cccc(Nc2nccc(Nc3cccc(C(F)(F)F)c3)n2)c1)C1CC1: 92.6%
Cc1cn(-c2cc(NC(=O)c3ccc(C)c(Nc4nccc(-c5cccnc5)n4)c3)cc(C(F)(F)F)c2)cn1: 109%
c1ccc(-c2cnc(Nc3ccc(OCCN4CCCC4)cc3)s2)cc1: 102%
Nc1cccc(-c2cc3c(Oc4cccc(O)c4)ncnc3[nH]2)c1: 94.2%
O=C1C(Cl)=C(N2C(=O)CCC2=O)C(=O)c2ccccc21: 101%
O=c1cc(-c2cccc3c2Sc2ccccc2S3)oc(N2CCOCC2)c1: 96.5%
COc1cc2ncnc(Nc3ccc(O)c(Br)c3)c2cc1OC: 97%
C[C@@H]1CCN(C(=O)CC#N)C[C@@H]1N(C)c1ncnc2[nH]ccc12: 119%
N#C/C(=C\c1ccc(O)c(O)c1)C(=O)NCc1ccccc1: 120%
CCN(CC)C(=O)c1ccc(Nc2nc(OCC3CCCCC3)c3[nH]cnc3n2)cc1: 87.6%
CN([C@@H](Cc1ccc(OS(=O)(=O)c2cccc3cnccc23)cc1)C(=O)N1CCN(c2ccccc2)CC1)S(=O)(=O)c1cccc2cnccc12: 99.4%
c1ccc(-c2[nH]ncc2-c2ccnc3ccccc23)nc1: 104%
O=C1c2ccccc2-c2n[nH]c3cccc1c23: 94.7%
CCOc1nc(NC(=O)Cc2cc(OC)ccc2OC)cc(N)c1C#N: 103%
Cc1cc2ncc(-c3ccccc3)nc2cc1C: 98.5%
Cc1nc2cc3nc(-c4cccs4)cnc3cc2n1C: 102%
Cn1nc2c3c(cccc31)C(=O)c1ccccc1-2: 98.8%
COc1cc2c(cc1OC)-c1[nH]nc(Nc3cccc(F)c3)c1C2: 101%
COc1cc2ncnc(Nc3cccc(Cl)c3)c2cc1OC: 99.9%
Ic1cccc(CSc2nnc(-c3ccncc3)o2)c1: 96.7%
CN(C)C[C@H]1CCn2c(c(C3=C(c4cn(C)c5ccccc45)C(=O)NC3=O)c3ccccc32)C1: 83%
CCN(CC)CCNC(=O)c1c(C)[nH]c(/C=C2\C(=O)Nc3ccc(Cl)cc32)c1C: 72.8%
N#Cc1c(NC(=O)c2cccc3ccccc23)sc2c1CCCC2: 101%

Set 4
Cell line: HaCaT
Tested at: 100 µM
Time: 18 h
Endpoint: viability
CN(C)CCc1c[nH]c2ccc(Cn3cncn3)cc12: 113%
O=C1C(O)=C([C@H]2CC[C@H](c3ccc(Cl)cc3)CC2)C(=O)c2ccccc21: 112%
Nc1cc(N2CCCCC2)nc(N)[n+]1[O-]: 110%
C[C@@H]1O[C@@H](OC[C@H]2O[C@@H](Oc3c(-c4ccc(OCCO)c(OCCO)c4)oc4cc(OCCO)cc(O)c4c3=O)[C@H](O)[C@@H](O)[C@@H]2O)[C@H](O)[C@H](O)[C@H]1O: 96.5%
NCCNc1ccc(NCCN)c2c1C(=O)c1ccncc1C2=O: 24.6%
Cc1nc2c([nH]1)-c1ccccc1N(C(=O)c1ccc(NC(=O)c3ccccc3-c3ccccc3)cc1)CC2: 50.6%
CN1C(C)(C)CCCC1(C)C: 93%
NC[C@@H]1O[C@H](O[C@H]2[C@@H](O)[C@H](O[C@@H]3[C@@H](O)[C@H](N)C[C@H](N)[C@H]3O[C@H]3O[C@H](CN)[C@@H](O)[C@H](O)[C@H]3N)O[C@@H]2CO)[C@H](N)[C@@H](O)[C@@H]1O: 124%
C[C@@H](O[C@H]1OCCN(Cc2n[nH]c(=O)[nH]2)[C@H]1c1ccc(F)cc1)c1cc(C(F)(F)F)cc(C(F)(F)F)c1: 16%
CCCc1cc(C(N)=S)ccn1: 111%
Cc1c(-c2ccccc2)oc2c(C(=O)OCCN3CCCCC3)cccc2c1=O: 48.8%
N#C[C@@H]1C[C@@H]2C[C@@H]2N1C(=O)[C@@H](N)C12CC3CC(CC(O)(C3)C1)C2: 117%

Excerpt of the above (set 4):
CN1C(C)(C)CCCC1(C)C: 93%
Cc1nc2c([nH]1)-c1ccccc1N(C(=O)c1ccc(NC(=O)c3ccccc3-c3ccccc3)cc1)CC2: 50.6%
O=C1C(O)=C([C@H]2CC[C@H](c3ccc(Cl)cc3)CC2)C(=O)c2ccccc21: 112%
C[C@@H]1O[C@@H](OC[C@H]2O[C@@H](Oc3c(-c4ccc(OCCO)c(OCCO)c4)oc4cc(OCCO)cc(O)c4c3=O)[C@H](O)[C@@H](O)[C@@H]2O)[C@H](O)[C@H](O)[C@H]1O: 96.5%
CN(C)CCc1c[nH]c2ccc(Cn3cncn3)cc12: 113%
CCCc1cc(C(N)=S)ccn1: 111%
C[C@@H](O[C@H]1OCCN(Cc2n[nH]c(=O)[nH]2)[C@H]1c1ccc(F)cc1)c1cc(C(F)(F)F)cc(C(F)(F)F)c1: 16%
